Published values gathered from unrelated publications.
Parts stem from different laboratories: compare values within a part only. Changes are numbered by the printed parent chain.
Chain of UniProt Q6ZWH5 (whole entry, looked up): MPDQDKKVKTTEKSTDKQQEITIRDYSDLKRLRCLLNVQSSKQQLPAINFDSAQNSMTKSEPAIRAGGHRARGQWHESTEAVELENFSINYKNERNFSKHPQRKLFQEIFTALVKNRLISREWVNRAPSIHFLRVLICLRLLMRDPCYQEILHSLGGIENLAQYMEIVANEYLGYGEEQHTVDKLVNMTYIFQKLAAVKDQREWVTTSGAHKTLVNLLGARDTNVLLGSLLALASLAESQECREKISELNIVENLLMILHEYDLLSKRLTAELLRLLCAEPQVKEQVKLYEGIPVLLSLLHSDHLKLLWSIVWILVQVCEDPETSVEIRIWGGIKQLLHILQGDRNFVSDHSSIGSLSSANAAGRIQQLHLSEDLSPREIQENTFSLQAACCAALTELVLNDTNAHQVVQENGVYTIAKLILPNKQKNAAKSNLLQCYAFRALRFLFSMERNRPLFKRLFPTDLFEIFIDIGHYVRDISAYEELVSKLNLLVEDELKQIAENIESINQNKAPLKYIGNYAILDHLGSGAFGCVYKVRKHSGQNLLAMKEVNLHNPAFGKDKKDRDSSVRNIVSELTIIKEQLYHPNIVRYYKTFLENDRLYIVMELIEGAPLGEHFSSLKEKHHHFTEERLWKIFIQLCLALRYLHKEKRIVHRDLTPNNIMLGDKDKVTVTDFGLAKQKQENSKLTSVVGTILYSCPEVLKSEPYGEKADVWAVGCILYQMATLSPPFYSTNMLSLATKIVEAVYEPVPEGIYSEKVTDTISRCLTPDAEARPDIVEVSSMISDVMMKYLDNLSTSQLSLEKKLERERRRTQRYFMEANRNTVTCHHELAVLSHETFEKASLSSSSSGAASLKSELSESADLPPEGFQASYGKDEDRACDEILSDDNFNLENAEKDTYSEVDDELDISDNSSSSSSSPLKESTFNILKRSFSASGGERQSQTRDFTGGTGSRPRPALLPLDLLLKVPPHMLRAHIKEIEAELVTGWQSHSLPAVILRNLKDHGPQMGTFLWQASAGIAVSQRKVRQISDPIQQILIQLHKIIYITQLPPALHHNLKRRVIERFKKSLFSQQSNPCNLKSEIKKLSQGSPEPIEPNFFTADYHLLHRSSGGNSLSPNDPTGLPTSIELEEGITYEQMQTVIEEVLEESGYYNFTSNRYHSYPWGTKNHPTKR

Study 1 — method: RNA Bind-n-Seq; molecule type: RNA; medium: in vitro; tested at: 20 nM; setting: 6-mer, flanks averaged, single round; with: 150 mM KCl; relative to: input library; direction: higher = stronger binding; measurement: 6-mer enrichment (R)
Target: TAR DNA-binding protein 43, full length, His tag (TARDBP, Homo sapiens, UniProt Q13148, residues 1-414)
Oligonucleotide = AGGGUG; value = 4.11
Oligonucleotide = CCCGGG; value = 1.47
Oligonucleotide = GGCCAU; value = 1.01
Oligonucleotide = AUAAUU; value = 0.752
Oligonucleotide = AGGGGA; value = 4.15
Oligonucleotide = GGGCCA; value = 2.28
Oligonucleotide = CUUCAC; value = 0.562
Oligonucleotide = UGUAUA; value = 0.71

Study 2 — target: CCNB3, cyclin fold, Cln2 fusion (human); method: yeast growth competition, sequencing; medium: yeast; setting: weak parent motif; relative to: not given; direction: higher = stronger binding; measurement: normalised enrichment score
Parent: INSM1 docking peptide (human); PKAIRKLHFEDEV; partner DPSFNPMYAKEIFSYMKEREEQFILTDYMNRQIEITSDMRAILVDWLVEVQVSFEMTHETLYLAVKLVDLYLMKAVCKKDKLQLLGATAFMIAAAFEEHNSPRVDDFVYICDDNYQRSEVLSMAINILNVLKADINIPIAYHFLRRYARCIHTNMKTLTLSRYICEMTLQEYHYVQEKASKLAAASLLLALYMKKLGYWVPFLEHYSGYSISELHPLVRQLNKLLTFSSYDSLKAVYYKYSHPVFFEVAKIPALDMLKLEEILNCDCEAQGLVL
Substitution = PKAIRKLHFEDKV [E12K]; value = 0.778
Substitution = PKACRKLHFEDEV [I4C]; value = 1.24
Substitution = PKAIRKLHFTDEV [E10T]; value = 0.152
Substitution = PKAIRPLHFEDEV [K6P]; value = -0.0332
Substitution = PKFIRKLHFEDEV [A3F]; value = 0.501
Substitution = PKAIRKNHFEDEV [L7N]; value = 0.0887
Substitution = PKAIRKLHFEDGV [E12G]; value = 0.32
Substitution = PKAIRKLHFETEV [D11T]; value = -0.156

Study 3 — method: RNA Bind-n-Seq; molecule type: RNA; medium: in vitro; tested at: 15 pmol; setting: 4-mer, random 30-nt RNA, single round; with: 3 µM RocA, 2 mM AMP-PNP; relative to: mean of 4-mers; direction: higher = stronger binding; measurement: 4-mer enrichment Z-score
Target: Eukaryotic initiation factor 4A-I (EIF4A1, Homo sapiens, UniProt P60842, residues 1-406, full length assumed)
Chain of UniProt P60842 (whole entry, looked up): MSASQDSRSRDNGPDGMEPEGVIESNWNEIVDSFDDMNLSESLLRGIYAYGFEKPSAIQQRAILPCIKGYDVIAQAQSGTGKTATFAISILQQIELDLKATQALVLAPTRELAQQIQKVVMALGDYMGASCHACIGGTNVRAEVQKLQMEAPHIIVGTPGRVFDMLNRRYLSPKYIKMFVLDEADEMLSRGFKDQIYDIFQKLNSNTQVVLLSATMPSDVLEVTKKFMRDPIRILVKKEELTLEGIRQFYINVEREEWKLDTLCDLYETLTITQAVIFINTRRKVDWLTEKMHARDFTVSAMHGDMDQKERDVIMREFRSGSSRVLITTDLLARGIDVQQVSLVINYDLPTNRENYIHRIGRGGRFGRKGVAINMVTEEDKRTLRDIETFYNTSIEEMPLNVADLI
Oligonucleotide = UGGG; value = 1.86
Oligonucleotide = CGAA; value = 0.93
Oligonucleotide = CAAC; value = -1.3
Oligonucleotide = ACGA; value = 0.164
Oligonucleotide = UCCG; value = -0.773
Oligonucleotide = CGGU; value = 0.185
Oligonucleotide = GCAU; value = -0.529
Oligonucleotide = CAUA; value = -0.983

Further values, each from its own experiment
Structure (SMILES) = CCC(=O)N[C@@H]1CC[C@H](C(=O)N(C)c2ccc(-c3nc4ccccc4o3)cc2)C1; target = Serine/threonine-protein kinase Nek10 (NEK10, Homo sapiens, UniProt Q6ZWH5); assay = cell-free assay, competition with immobilised ligand; setting = 1 µM; measurement = remaining binding; value = 100%
